{"data": "Published values of several laboratories", "gag-pol integrase": "Gag-Pol polyprotein, integrase (gag-pol, Human immunodeficiency virus type 1 group M subtype B, UniProt P04585)", "F fusion protein": "Fusion glycoprotein F0, fusion protein (F, Parainfluenza virus 5, UniProt P04849)", "note": "± gives the spread as reported.", "UniProt P16390, sequence (whole entry, looked up)": "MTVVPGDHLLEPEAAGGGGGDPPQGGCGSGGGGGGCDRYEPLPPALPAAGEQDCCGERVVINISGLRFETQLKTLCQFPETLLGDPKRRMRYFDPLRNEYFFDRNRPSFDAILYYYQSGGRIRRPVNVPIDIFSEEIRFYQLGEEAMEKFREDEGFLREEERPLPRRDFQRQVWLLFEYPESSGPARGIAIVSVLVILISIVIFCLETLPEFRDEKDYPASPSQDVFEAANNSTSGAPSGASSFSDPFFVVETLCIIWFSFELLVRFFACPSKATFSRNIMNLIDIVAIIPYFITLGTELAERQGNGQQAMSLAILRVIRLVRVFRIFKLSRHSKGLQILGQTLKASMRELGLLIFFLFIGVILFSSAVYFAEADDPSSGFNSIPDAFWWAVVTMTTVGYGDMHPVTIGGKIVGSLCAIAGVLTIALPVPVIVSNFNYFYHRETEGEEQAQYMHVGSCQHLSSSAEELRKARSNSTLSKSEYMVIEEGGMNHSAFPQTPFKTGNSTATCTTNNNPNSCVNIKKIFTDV", "UniProt P32300, sequence (whole entry, looked up)": "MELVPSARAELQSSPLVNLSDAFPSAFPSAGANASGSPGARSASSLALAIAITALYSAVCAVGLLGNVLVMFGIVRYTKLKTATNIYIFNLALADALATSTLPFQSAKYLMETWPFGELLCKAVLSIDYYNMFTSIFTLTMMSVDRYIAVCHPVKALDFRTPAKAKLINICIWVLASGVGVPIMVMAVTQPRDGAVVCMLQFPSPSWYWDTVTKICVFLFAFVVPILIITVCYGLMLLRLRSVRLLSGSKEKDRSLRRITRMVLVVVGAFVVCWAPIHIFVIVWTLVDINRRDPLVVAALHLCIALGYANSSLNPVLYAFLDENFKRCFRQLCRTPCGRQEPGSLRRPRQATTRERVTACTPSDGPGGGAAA"}
{"SMILES": "CC[C@H](C)[C@H](NC(=O)[C@H](C)NC(=O)[C@H](CCC(=O)O)NC(C)=O)C(=O)N[C@H](C(=O)N[C@H]1CCCC=CCCC[C@@H](C(=O)N[C@@H](CC(C)C)C(=O)N[C@@H](CC(C)C)C(=O)N[C@@H](Cc2ccccc2)C(=O)N[C@H](C(=O)N[C@@H](Cc2c[nH]cn2)C(=O)N[C@@H](Cc2ccccc2)C(=O)N[C@@H](CCCNC(=N)N)C(=O)N[C@H](C(=O)NCC(N)=O)[C@@H](C)CC)[C@@H](C)CC)NC(=O)[C@H](CCC(N)=O)NC(=O)[C@H](CC(C)C)NC(=O)[C@H]([C@@H](C)CC)NC1=O)[C@@H](C)CC", "target": "gag-pol integrase", "assay": "3′-end processing, inhibitor", "system": "HIV-1", "IC50": "> 111 µM"}
{"SMILES": "CC[C@H](C)[C@@H]1NC(=O)[C@@H](NC(=O)[C@H](CO)NC(=O)[C@@H](N)CCCNC(=N)N)CSSC[C@@H](C(=O)N[C@@H](CCCCN)C(N)=O)NC(=O)[C@H]([C@@H](C)O)NC(=O)CNC(=O)[C@@H]2CSSC[C@@H]3NC(=O)[C@H](CCC(N)=O)NC(=O)[C@H](Cc4ccccc4)NC(=O)[C@H](C)NC(=O)[C@H]([C@@H](C)O)NC(=O)[C@H](CSSC[C@H](NC(=O)[C@H](Cc4ccccc4)NC(=O)[C@H](CO)NC(=O)[C@H](CC(C)C)NC(=O)[C@H](CCCNC(=N)N)NC(=O)[C@H](Cc4ccc(O)cc4)NC(=O)[C@H](CCCCN)NC(=O)[C@H](CCSC)NC(=O)[C@H](CO)NC(=O)[C@H](Cc4c[nH]cn4)NC(=O)[C@H](CCCCN)NC3=O)C(=O)N[C@@H](CCCNC(=N)N)C(=O)N[C@@H](CCCCN)C(=O)N[C@@H]([C@@H](C)O)C(=O)N2)NC(=O)[C@H](CCCNC(=N)N)NC(=O)[C@H](CO)NC(=O)[C@H](CCCCN)NC(=O)[C@@H]2CCCN2C(=O)[C@H]([C@@H](C)CC)NC(=O)[C@H]([C@@H](C)O)NC(=O)[C@H](CC(=O)O)NC1=O", "target": "Kcna3 (Mus musculus, UniProt P16390)", "assay": "ion current, inhibitor, patch clamp", "IC50": "2.6e-05 µM"}
{"SMILES": "CC[C@H](C)[C@H](NC(=O)[C@H](C)NC(=O)[C@H](CO)NC(=O)[C@H](CC(C)C)NC(=O)[C@H](Cc1ccc(O)cc1)NC(=O)[C@@H](NC(=O)[C@H](CC(=O)O)NC(=O)[C@H](CO)NC(=O)[C@H](CCC(N)=O)NC(=O)[C@H](C)NC(=O)[C@H](CC(C)C)NC(=O)[C@H](Cc1c[nH]cn1)NC(=O)[C@H](CCC(N)=O)NC(=O)[C@H](CC(C)C)NC(=O)[C@H](C)NC(=O)[C@H](CC(=O)O)NC(=O)[C@H](CO)NC(=O)[C@H](CC(C)C)NC(=O)[C@H](CO)NC(=O)[C@H](CCCCN)NC(=O)[C@H](CC(N)=O)NC(=O)[C@@H](NC(=O)[C@H](C)NC(=O)[C@H](C)NC(=O)[C@H](CC(C)C)NC(=O)[C@H](CC(N)=O)NC(=O)[C@H](CCC(N)=O)NC(=O)[C@H](CO)NC(=O)[C@H](C)NC(=O)[C@H](CC(=O)O)NC(=O)[C@H](CC(C)C)NC(=O)[C@@H]1CCCN1C(=O)[C@H](CC(=O)O)NC(=O)[C@@H](NC(=O)[C@H](CO)NC(=O)[C@H](CC(C)C)NC(=O)[C@@H](NC(=O)[C@H](CCC(N)=O)NC(=O)[C@H](CO)NC(=O)[C@H](CO)NC(=O)[C@H](CCC(=O)O)NC(=O)[C@H](CC(C)C)NC(=O)[C@@H](N)CCCCN)[C@@H](C)CC)[C@@H](C)CC)C(C)C)[C@@H](C)O)C(=O)O", "target": "F fusion protein", "assay": "cell-cell fusion, inhibitor, luciferase reporter", "system": "Vero plus BSR-T7 cells", "setting": "6 h, 37 °C, together with: SV5 F and HN", "IC50": "0.115 ± 0.007 µM"}
{"SMILES": "CC(C)C[C@H](NC(=O)[C@H](CCCCN)NC(=O)[C@H](CC(C)C)NC(=O)[C@]1(C)CCCC=CCCC[C@](C)(N)C(=O)N[C@@H](C)C(=O)N[C@@H](Cc2ccc(O)cc2)C(=O)N[C@@H](Cc2ccccc2)C(=O)N1)C(=O)N[C@@H](C)C(=O)NCC(=O)N[C@@H](CCCNC(=N)N)C(=O)N[C@@H](Cc1c[nH]c2ccccc12)C(N)=O", "target": "gag-pol integrase", "assay": "integrase 3'-processing, inhibitor", "IC50": "53 ± 15 µM"}
{"SMILES": "CC[C@H](C)[C@H](NC(=O)[C@H](C)NC(=O)[C@H](CO)NC(=O)[C@H](CC(C)C)NC(=O)[C@H](Cc1ccc(O)cc1)NC(=O)[C@@H](NC(=O)[C@H](CC(=O)O)NC(=O)[C@H](CO)NC(=O)[C@H](CCC(N)=O)NC(=O)[C@H](C)NC(=O)[C@H](CC(C)C)NC(=O)[C@H](Cc1c[nH]cn1)NC(=O)[C@H](CCC(N)=O)NC(=O)[C@H](CC(C)C)NC(=O)[C@H](C)NC(=O)[C@H](CC(=O)O)NC(=O)[C@H](CO)NC(=O)[C@H](CC(C)C)NC(=O)[C@H](CO)NC(=O)[C@H](CCCCN)NC(=O)[C@H](CC(N)=O)NC(=O)[C@@H](NC(=O)[C@H](C)NC(=O)[C@H](C)NC(=O)[C@H](CC(C)C)NC(=O)[C@H](CC(N)=O)NC(=O)[C@H](CCC(N)=O)NC(=O)[C@H](CO)NC(=O)[C@H](Cc1ccccc1)NC(=O)[C@H](CC(=O)O)NC(=O)[C@H](CC(C)C)NC(=O)[C@@H]1CCCN1C(=O)[C@H](CC(=O)O)NC(=O)[C@@H](NC(=O)[C@H](CO)NC(=O)[C@H](CC(C)C)NC(=O)[C@@H](NC(=O)[C@H](CCC(N)=O)NC(=O)[C@H](CO)NC(=O)[C@H](CO)NC(=O)[C@H](CCC(=O)O)NC(=O)[C@H](CC(C)C)NC(=O)[C@@H](N)CCCCN)[C@@H](C)CC)[C@@H](C)CC)C(C)C)[C@@H](C)O)C(=O)O", "target": "F fusion protein", "assay": "cell-cell fusion, inhibitor, luciferase reporter", "system": "Vero plus BSR-T7 cells", "setting": "6 h, 37 °C, together with: SV5 F and HN", "IC50": "0.151 ± 0.012 µM"}
{"SMILES": "CC[C@H](C)[C@H](N)C(=O)N[C@@H](CC(N)=O)C(=O)N[C@@H](CC(N)=O)C(=O)N[C@H](C(=O)N1C[C@@H](n2cc([C]34[CH]5[CH]6[CH]7[CH]3[Fe]6754389%10[CH]4[CH]3[CH]8[CH]9[CH]4%10)nn2)C[C@H]1C(=O)N[C@@H](Cc1ccc(O)cc1)C(N)=O)[C@@H](C)CC (stereo partly shown)", "target": "Envelope glycoprotein gp160, gp120 (env, Human immunodeficiency virus type 1 group M subtype B, UniProt P35961, M413A)", "assay": "binding to soluble CD4, inhibitor, competition SPR", "setting": "gp120 M426A mutant", "IC50": "5.1 ± 0.2 µM"}
{"SMILES": "C=CCCC[C@H](NC(=O)[C@H](CCCNC(=N)N)NC(=O)[C@@H](NC(=O)[C@@H](NC(=O)[C@H](CCCC=C)NC(=O)[C@H](CCC(=O)O)NC(C)=O)[C@@H](C)CC)[C@@H](C)CC)C(=O)N[C@@H](CC(C)C)C(=O)N[C@@H](CCC(N)=O)C(=O)N[C@@H](CCC(N)=O)C(=O)N[C@@H](CC(C)C)C(=O)N[C@@H](CC(C)C)C(=O)N[C@@H](Cc1ccccc1)C(=O)N[C@H](C(=O)N[C@@H](Cc1c[nH]cn1)C(=O)N[C@@H](Cc1ccccc1)C(=O)N[C@@H](CCCNC(=N)N)C(=O)N[C@H](C(=O)NCC(N)=O)[C@@H](C)CC)[C@@H](C)CC", "target": "gag-pol integrase", "assay": "3′-end processing, inhibitor", "system": "HIV-1", "IC50": "5.2 ± 0.5 µM"}
{"SMILES": "O=C(COc1ccc2c(c1O)C(=O)c1ccccc1C2=O)c1ccccc1", "target": "Gag-Pol polyprotein, RT DNA polymerase activity (gag-pol, Human immunodeficiency virus 1, UniProt P03366, K702N)", "assay": "enzyme activity, inhibitor", "IC50": "35 ± 4 µM"}
{"SMILES": "O=C1c2c(ccc(O)c2O)CN1Cc1cccc(Cl)c1F", "target": "Gag-Pol polyprotein, integrase (gag-pol, Human immunodeficiency virus 1, UniProt P12497, Y1290R)", "assay": "enzyme activity, inhibitor", "IC50": "6.6 ± 0.3 µM"}
{"SMILES": "NC(=O)[C@H](CO)NC(=O)[C@@H]1CCCN1C(=O)[C@H](Cc1ccc(O)cc1)NC(=O)CNC(=O)[C@H](Cc1ccccc1)NC(=O)[C@@H](CCCNC(=O)CBr)NC(=O)[C@@H](N)Cc1ccc(O)cc1", "target": "Oprd1 (Mus musculus, UniProt P32300)", "assay": "radioligand binding", "system": "CHO cells", "setting": "together with: 0.15 nM [3H]DPDPE", "IC50": "0.342 ± 0.02 µM"}
{"note": "Repeated from above:"}
{"SMILES": "O=C1c2c(ccc(O)c2O)CN1Cc1cccc(Cl)c1F", "target": "Gag-Pol polyprotein, integrase (gag-pol, Human immunodeficiency virus 1, UniProt P12497, Y1290R)", "assay": "enzyme activity, inhibitor", "IC50": "6.6 ± 0.3 µM"}
